Experimental data pooled from the literature.
Protocols differ between the studies behind these lines. “And” joins repeats or separate records; there may be more than shown. ± marks the error that the study gave.
PHO85: Negative regulator of the PHO system (PHO85, Candida albicans, UniProt Q9HGY5)
GUK1: GUK1 (Homo sapiens, UniProt Q16774)
USP20 ZnF-UBD domain: Ubiquitin carboxyl-terminal hydrolase 20, ZnF-UBD domain (USP20, Homo sapiens, UniProt Q9Y2K6)
TOP2A: DNA topoisomerase 2-alpha (TOP2A, Homo sapiens, UniProt P11388)

SMILES | tested on | assay | test system | conditions | how to read | measurement | result
Cc1cc(=O)oc2cc(OCCCCSC#N)ccc12 | CA12 (Homo sapiens, UniProt O43570) | stopped-flow CO2 hydration |  |  | reference: Ki CA I over Ki CA XII | selectivity ratio | > 1840
C[C@H](N)C(=O)Nc1ccc2ccccc2c1 | rat neuron-specific aminopeptidase | substrate |  |  |  | Km | 10 µM
[H]/N=C(/N)NCC(=O)O | SLC6A6 (Homo sapiens, UniProt P31641, L306A) | binding, microscale thermophoresis |  | 62.5 µM, room temperature, added: 50 nM labelled protein | higher = more binding | normalised MST signal | 0.0142
CC[C@@H]1[C@H](F)C(=O)N[C@@H]1COc1nccc2cc(C(N)=O)c(OC)cc12 | GAK (Homo sapiens, UniProt O14976) | ATP-site probe binding, ActivX profiling | THP-1 cell lysate | 0.04 mM, Lys2 site |  | inhibition | 3.7%
C=CC(=O)N1CCC(COCC(=O)N2CCN(c3nc(-c4cnc(N)nc4C(F)F)nc(N4CCOC[C@@H]4C)n3)CC2)CC1 | EPHB6 (Homo sapiens, UniProt O15197) | KINOMEscan |  | 1 µM |  | remaining binding | 59%
Oc1ccccc1-c1n[nH]cc1-c1ccnc2ccccc12 | PHO85 | kinase binding, MIB/MS competition | Candida albicans lysate | 1 µM | reference: DMSO, negative = stronger binding | log2 fold change | 0.11
Nc1ncnc2c1ncn2[C@@H]1O[C@H](COP(=O)(O)CP(=O)(O)OP(=O)(O)O)[C@@H](O)[C@H]1O | P2X purinoceptor 1 (P2RX1, Homo sapiens, UniProt P51575, R292A) | calcium influx |  | 1 µM | reference: ionomycin response | calcium influx | 0.059% and 0.101% and 0.713% and 0.823%
Cc1nn(CCc2ccccc2)c2ncc(C(=O)NCc3ccccn3)c(Cl)c12 | PREP (Homo sapiens, UniProt P48147) | intact protein MS |  | 50 µM, 4 h, 37 °C |  | protein adduct formation | 65%
Nc1ncnc2c1ncn2[C@@H]1O[C@H](C[C@@H](N)CC[C@H](N)C(=O)O)[C@@H](O)[C@H]1O | DNA adenine methyltransferase CamA (Clostridioides difficile, UniProt Q183J3) | ITC |  | concentration not given, added: 50 µM DNA | reference: without DNA | cofactor binding increase | ~2
Nc1nc2c(ncn2[C@@H]2O[C@H](COP(=O)(O)O)[C@@H](O)[C@H]2O)c(=O)[nH]1 | GUK1 | enzyme activity, NADH-coupled |  | 2000 µM |  | reaction rate | 41.1 s⁻¹ and 38.9 s⁻¹ and 42.6 s⁻¹
COc1cc(C(=O)NS(=O)(=O)c2ccccc2C)ccc1Cc1cn(C)c2ccc(NC(=O)OC3CCCC3)cc12 | Volume-regulated anion channel subunit LRRC8C, part LRRC8A IL1 chimera (LRRC8C, Homo sapiens, UniProt Q8TDW0, L105R) | ion current, inhibitor, whole-cell patch clamp | HCT LRRC8-/- cells | 100 µM, +100 mV |  | inhibition | 83.1% and 88.4% and 91.1% and 92.7% and 91.9%
O=C(O)CCc1ccno1 | USP20 ZnF-UBD domain |  |  |  |  | Kd | > 1000 µM
CC(C)C[C@H](NC(=O)C[C@H](O)[C@H](CC(C)C)NC(=O)[C@H](Cc1c[nH]cn1)NC(=O)CNC(=O)[C@@H](NC(=O)[C@H](C)NC(=O)[C@H](Cc1c[nH]c2ccccc12)NC(=O)[C@H](CCC(N)=O)NC(=O)[C@@H](Cc1ccccc1)NC(=O)COCCOCCNC(=O)CCC(C(=O)O)N1CCN(CC(=O)O)CCN(CC(=O)O)CCN(CC(=O)O)CC1)C(C)C)C(N)=O (stereo partly shown) [lutetium-177 labelled] |  |  | BALB/c nu/nu mice, skin | intravenous, 500 pmol, 1 h, added: PA 300 µg |  | tissue uptake | 0.33 ± 0.05 %ID/g
[O-][S+]1CCCCS1 (stereo not shown) | SOD1 (Homo sapiens, UniProt P00441, G94A) | target engagement | SOD1 G93A transgenic mice, blood | subcutaneous, 30 mg/kg twice daily |  | SOD1 dimer level | 85.4% and 85.8%
Cc1[nH]c(/C=C2\C(=O)Nc3ccc(C(=O)N[C@H](C)c4ccc(F)cc4)cc32)c(C)c1NC(=O)C(=O)c1ccccc1 | GRK5 (Homo sapiens, UniProt P34947) | tubulin phosphorylation |  |  | reference: GRK2 IC50 over GRK5 IC50 | selectivity ratio | > 900 fold
O=c1c2ccccc2c(Cc2ccc(Cl)cc2)nn1C1CCCNCC1 (stereo not shown) | CatSper channel complex (Homo sapiens, UniProt Q7RTX7+Q86XQ3+Q8NEC5+Q96P56) | ion current, whole-cell patch clamp | human sperm | 10 µM, at -80 mV |  | inward current density | -2.5 ± 1.1 pA/pF
O=C(COP(=O)(O)O)[C@@H](O)[C@H](O)[C@H](O)COP(=O)(O)O | Retrotransposon-derived protein PEG10 (PEG10, Homo sapiens, UniProt Q86TG7) | thermal proteome profiling, measured: PEG10 | HepG2 cell lysate | concentration not given, 57 over 37 °C, mean | reference: compound over control | thermal stability ratio | 0.671

SMILES | tested on | assay | test system | conditions | how to read | measurement | result
CC(C)c1cccc2c(-c3ccccc3)cc(/C=C/c3ccc(C(=O)O)cc3)nc12 | RARG (Homo sapiens, UniProt P13631) | reporter gene, antagonist |  | up to 3300 nM, added: ATRA 8 nM (EC80) |  | IC50 | inactive
Cc1cc(-c2ccnc3[nH]cc(F)c23)cc(F)c1[C@@]1(O)[C@H](C)CN(C(=O)CN)C[C@@H]1C | STK38 (Homo sapiens, UniProt Q15208) | ATP probe binding, KiNativ, measured: Lys2 site | HEK293T cell lysate | 10 µM |  | inhibition | 57.7%
CCCCC[C@H](O)/C=C/[C@H]1[C@H](O)CC(=O)[C@@H]1C/C=C\CCCC(=O)O | PTGER1 (Homo sapiens, UniProt P34995, F334A) | IP1 accumulation, agonist | AD293 | 1 h, EP1 F334A mutant |  | Emax | 103 ± 8.66%
CC1=C(/C=C/C(C)=C/C=C/C(C)=C/C=O)C(C)(C)CCC1 | Rhodopsin (RHO, Bos taurus, UniProt P02699, F273A) | retinal entry, Trp FRET | lipid bicelles | 28 °C, F273A mutant | reference: wild-type rhodopsin | relative kon | 0.336 ± 0.057
Nc1ncnc2c1ncn2[C@@H]1O[C@H](COP(=O)(O)OP(=O)(O)OP(=O)(O)O)[C@@H](O)[C@H]1O | P2X purinoceptor 7 (P2rx7, Rattus norvegicus, UniProt Q64663, I214A/Q143A) | ion current, agonist, two-electrode voltage clamp | Xenopus laevis oocytes | 11 µM | reference: highest concentration response | normalized current | 0
O=C1CCC(N2C(=O)C=C(Nc3cccc(C4(NCCc5ccc(Cl)c(C(F)(F)F)c5)CCC4)c3)C2=O)C(=O)N1 (stereo not shown) | ZBTB11/CRBN (Homo sapiens, UniProt O95625+Q96SW2) | protein degradation, degrader, HiBiT luminescence | MOLT-4 |  |  | Dmax | 72%
Cc1cc2nc3c(=O)[nH]c(=O)nc-3n(C[C@H](O)[C@H](O)[C@H](O)COP(=O)(O)O)c2cc1C | NADH-dependent FMN reductase SfnF (sfnF, Pseudomonas fluorescens, UniProt Q3K9A2) | surface plasmon resonance |  |  |  | kon | 271000 M⁻¹ s⁻¹
CSCC[C@H](NC(=O)[C@@H]1CCCN1C(C)=O)C(=O)N[C@@H](C)C(=O)N[C@@H](CO)C(=O)N[C@@H](CC(=O)O)C(=O)N1CCC[C@H]1C(=O)N[C@@H](CC(C)C)C(=O)NCC(=O)N[C@H](C(=O)N[C@H](C(=O)N[C@@H](CCCNC(=N)N)C(=O)N1CCC[C@H]1C(=O)N[C@@H](CCCNC(=N)N)C(=O)N[C@@H](C)C(=O)N[C@@H](CCCNC(=N)N)C(=O)N[C@@H](C)C(=O)NCCCC[C@H](NC(=O)[C@H](C)NC(=O)[C@H](CCCNC(=N)N)NC(=O)[C@H](C)NC(=O)[C@H](CCCNC(=N)N)NC(=O)[C@@H]1CCCN1C(=O)[C@H](CCCNC(=N)N)NC(=O)[C@@H](NC(=O)[C@@H](NC(=O)CNC(=O)[C@H](CC(C)C)NC(=O)[C@@H]1CCCN1C(=O)[C@H](CC(=O)O)NC(=O)[C@H](CO)NC(=O)[C@H](C)NC(=O)[C@H](CCSC)NC(=O)[C@@H]1CCCN1C(C)=O)C(C)C)C(C)C)C(=O)NCCC(=O)N[C@@H](CCCCNC(=O)CCOCCOCCOCCOCCNC(=O)CCCC[C@@H]1SC[C@@H]2NC(=O)N[C@@H]21)C(N)=O)C(C)C)C(C)C | MDM2 | biolayer interferometry |  | concentration not given, added: MDM2 7.8-1000 nM |  | binding | no binding
O=C(O)c1ccc(Nc2ncc3c(n2)-c2ccc(Cl)cc2C(c2c(F)cccc2F)=NC3)cc1 | Mnk2(h) | kinase activity |  | 1 µM |  | remaining activity | 94%
N#Cc1ccc2c(-c3ccncc3)c(-c3ccc(F)cc3)nn2c1 | PHO85 | kinase binding, competitor, MIB/MS competition, measured: PHO85 | Candida albicans cell lysate | 1 µM | reference: DMSO | log2 fold change | 0.35
O=C(CCCc1ccccc1)C(=O)NCCc1ccc(Oc2ccc(C(F)(F)F)cn2)cc1 | APEH (Homo sapiens, UniProt P13798) | inhibitor, FP-biotin chemoproteomics, measured: ACPH | HepG2 | concentration not given | reference: DMSO, lower = stronger inhibition | probe-enriched protein abundance | 516000 a.u.
O=C(O)CCc1nc2ccccc2c2nc(Cc3ccccc3)nn12 | USP20 ZnF-UBD domain |  |  |  |  | Kd | > 1000 µM
[Cl-].[Na+] | GUK1 | enzyme activity, NADH-coupled |  | 3.75 mM |  | reaction velocity | 0.00946 µM/s and 0.011 µM/s and 0.0136 µM/s
O=c1nc(SCc2cc(F)cc(C(F)(F)F)c2)nc(SCc2ccc3sccc3c2)[nH]1 | TOP2A | ATPase activity |  | 7.8 µM, added: ATP 1 mM |  | ATP hydrolysis rate | 1.86 µM/min and 0.975 µM/min
COc1ccccc1N1CCN(C(=O)c2cccc(S(=O)(=O)n3cncn3)c2)CC1 | AKR1C3 (Homo sapiens, UniProt P42330) | competitive gel-based ABPP | HEK-293T expressing AKR1C3 | concentration not given, 5-120 min |  | probe labelling blockade | inactive
O=c1nc(SCc2cc(F)cc(C(F)(F)F)c2)nc(SCc2ccc3nc(Cl)ccc3c2)[nH]1 | TOP2A | decatenation |  | 31.25 µM, replicate 1 |  | decatenated DNA | 0%
NC(=O)c1ccc[n+]([C@@H]2O[C@H](COP(=O)([O-])OP(=O)(O)OC[C@H]3O[C@@H](n4cnc5c(NCCNC(=O)CCCCCNC(=O)CCCCCNC(=O)CCCC[C@@H]6SC[C@@H]7NC(=O)N[C@@H]76)ncnc54)[C@H](O)[C@@H]3O)[C@@H](O)[C@H]2O)c1 | PARP15 (Homo sapiens, UniProt Q460N3) | substrate, DELFIA auto-modification |  |  |  | apparent Km | 1 µM

A few entries again:
SMILES | tested on | assay | test system | conditions | how to read | measurement | result
COc1cc(C(=O)NS(=O)(=O)c2ccccc2C)ccc1Cc1cn(C)c2ccc(NC(=O)OC3CCCC3)cc12 | Volume-regulated anion channel subunit LRRC8C, part LRRC8A IL1 chimera (LRRC8C, Homo sapiens, UniProt Q8TDW0, L105R) | ion current, inhibitor, whole-cell patch clamp | HCT LRRC8-/- cells | 100 µM, +100 mV |  | inhibition | 83.1% and 88.4% and 91.1% and 92.7% and 91.9%
Nc1nc2c(ncn2[C@@H]2O[C@H](COP(=O)(O)O)[C@@H](O)[C@H]2O)c(=O)[nH]1 | GUK1 | enzyme activity, NADH-coupled |  | 2000 µM |  | reaction rate | 41.1 s⁻¹ and 38.9 s⁻¹ and 42.6 s⁻¹
[H]/N=C(/N)NCC(=O)O | SLC6A6 (Homo sapiens, UniProt P31641, L306A) | binding, microscale thermophoresis |  | 62.5 µM, room temperature, added: 50 nM labelled protein | higher = more binding | normalised MST signal | 0.0142
CC(C)C[C@H](NC(=O)C[C@H](O)[C@H](CC(C)C)NC(=O)[C@H](Cc1c[nH]cn1)NC(=O)CNC(=O)[C@@H](NC(=O)[C@H](C)NC(=O)[C@H](Cc1c[nH]c2ccccc12)NC(=O)[C@H](CCC(N)=O)NC(=O)[C@@H](Cc1ccccc1)NC(=O)COCCOCCNC(=O)CCC(C(=O)O)N1CCN(CC(=O)O)CCN(CC(=O)O)CCN(CC(=O)O)CC1)C(C)C)C(N)=O (stereo partly shown) [lutetium-177 labelled] |  |  | BALB/c nu/nu mice, skin | intravenous, 500 pmol, 1 h, added: PA 300 µg |  | tissue uptake | 0.33 ± 0.05 %ID/g
CCCCC[C@H](O)/C=C/[C@H]1[C@H](O)CC(=O)[C@@H]1C/C=C\CCCC(=O)O | PTGER1 (Homo sapiens, UniProt P34995, F334A) | IP1 accumulation, agonist | AD293 | 1 h, EP1 F334A mutant |  | Emax | 103 ± 8.66%
